Assay results gathered from unrelated publications.
Each line is one published result; not all experiments were run side by side. ± gives the spread as reported.

Structure (SMILES) | assay | test system | setting | how to read | measurement | result
NNc1ccc(C(=O)NCCN2CC(=Cc3ccccc3F)C(=O)C(=Cc3ccccc3F)C2)cn1 |  | mouse PANC-1 xenograft | ip, 5 µg daily, 3 weeks |  | tumour volume | ~434 mm³
CC(C)(C)OC(=O)NCC(=O)OC1CCC2(C)C(C(O)CC3(C)C2CC(O)C2C(C4(C)CCCC(C)(C)O4)CCC23C)C1(C)C (stereo not drawn) | item: tumour weight | nude mouse, HeLa xenograft | intraperitoneal, 30 mg/kg, every 2 days for 20 days |  | tumour growth inhibition | 70.3%
CC(=O)O[C@@]12CO[C@@H]1C[C@H](O)[C@@]1(C)C(=O)[C@H](O)C3=C(C)[C@@H](OC(=O)[C@H](O)[C@@H](NC(=O)OC(C)(C)C)c4ccccc4)C[C@@](O)([C@@H](OC(=O)c4ccccc4)[C@H]21)C3(C)C |  | mouse, PC-3 xenograft | 5 mg/kg once weekly for 3 weeks, day 28 after inoculation |  | tumour volume | 207 ± 66 mm3
CC[C@H](C)[C@H](NC(=O)[C@H](CC(C)C)NC(=O)[C@@H]1CCCN1C(=O)[C@H](CCCCN)NC(=O)[C@H](CC(C)C)NC(=O)[C@H](CCCNC(=N)N)NC(=O)[C@@H](NC(=O)CN)[C@@H](C)O)C(=O)N[C@H](C(=O)N[C@@H](CS)C(=O)N[C@H](C(=O)N[C@@H](CCC(N)=O)C(=O)N[C@@H](Cc1c[nH]c2ccccc12)C(=O)N1CCC[C@H]1C(=O)NCC(=O)N[C@@H](CC(C)C)C(=O)O)C(C)C)[C@@H](C)CC |  | BALB/c mouse, CT26 colon carcinoma | intraperitoneal, 10 mg/kg daily, 13 days, pre-immunized with CT26 lysate |  | tumour volume | 608 ± 220 mm³
CCCC(C)NC(=O)c1ccc(Cl)c(Cl)c1 (stereo not drawn) |  | MCF7-β3/MT xenograft, mouse | intratumoral, 0.5 mg/kg, day 46, 3 times weekly from day 29, 7 doses |  | tumour volume | 366 ± 123 mm3
CC(C)C[C@H](NC(=O)[C@@H](O)[C@H](N)Cc1ccccc1)C(=O)O | MRI, sum of long and short diameters | nude mouse, HT-1080 xenograft | i.p., 0.5 mg/kg/day for 7 days, 168 h |  | tumour size | 2.9 ± 0.1 cm
Cc1ccc(C[C@H](NC(=O)[C@@H](C)NC(=O)[C@@H]2CCCN2C(=O)[C@@H]2C[C@@H]3CCCC[C@@H]3N2C(=O)[C@H](N)CCCNC(=N)N)C(N)=O)cc1 | immunostaining, item: PECAM-1 (CD31) | nude mouse PC-3 xenograft, tumour | drinking water, 3 mg/mL |  | tumour vessel count | 4.9 ± 2.4 vessels/hpf
N=C(N)NCCC[C@@H]1NC(=O)CNC(=O)[C@H](CC(N)=O)NC(=O)[C@H](CCCCNC(=S)Nc2ccc(C[C@H]3CN(CC(=O)O)CCN(CC(=O)O)CCN3CC(=O)O)cc2)NC(=O)CC[C@@H](C(N)=O)NC1=O [gallium-68 labelled] | PET/CT | BALB/c nude mouse, MCF7 xenograft | intravenous, 30 min |  | tumour uptake | 0.21 ± 0.09 %ID/g
CC1=CC(=O)C(C(C)C)=CC1=O |  | 786-0, mouse xenograft | intraperitoneal, 20 mg/kg every 3 days, 4 weeks |  | tumour volume | ~270 mm³
CC[C@H](C)[C@H](NC(=O)[C@H](CC(C)C)NC(=O)[C@@H](NC(=O)[C@@H]1CCCN1C(=O)[C@@H](NC(=O)[C@@H]1CCCN1C(=O)[C@@H](NC(=O)[C@H](CO)NC(=O)[C@H](Cc1c[nH]cn1)NC(=O)[C@@H]1CCCN1C(=O)[C@H](CCCNC(=N)N)NC(=O)[C@H](CCCCN)NC(=O)[C@H](CCCNC(=N)N)NC(=O)[C@H](CCCNC(=N)N)NC(=O)[C@H](CCCNC(=N)N)NC(=O)[C@@H]1CCCN1C(=O)[C@H](CCCNC(=N)N)NC(=O)[C@H](CC(C)C)NC(=O)[C@H](CC(C)C)NC(=O)[C@H](Cc1c[nH]cn1)NC(=O)[C@H](Cc1c[nH]cn1)NC(=O)CNC(=O)[C@@H](N)CSSC[C@H](N)C(=O)NCC(=O)N[C@@H](Cc1c[nH]cn1)C(=O)N[C@@H](Cc1c[nH]cn1)C(=O)N[C@@H](CC(C)C)C(=O)N[C@@H](CC(C)C)C(=O)N[C@@H](CCCNC(=N)N)C(=O)N1CCC[C@H]1C(=O)N[C@@H](CCCNC(=N)N)C(=O)N[C@@H](CCCNC(=N)N)C(=O)N[C@@H](CCCNC(=N)N)C(=O)N[C@@H](CCCCN)C(=O)N[C@@H](CCCNC(=N)N)C(=O)N1CCC[C@H]1C(=O)N[C@@H](Cc1c[nH]cn1)C(=O)N[C@@H](CO)C(=O)N[C@H](C(=O)N1CCC[C@H]1C(=O)N[C@H](C(=O)N1CCC[C@H]1C(=O)N[C@H](C(=O)N[C@@H](CC(C)C)C(=O)N[C@H](C(=O)N[C@@H](Cc1ccccc1)C(=O)N[C@@H](CCCNC(=N)N)C(=O)N[C@@H](CO)C(=O)N1CCC[C@H]1C(=O)O)[C@@H](C)CC)[C@@H](C)CC)[C@@H](C)O)[C@@H](C)CC)[C@@H](C)CC)[C@@H](C)O)[C@@H](C)CC)C(=O)N[C@@H](Cc1ccccc1)C(=O)N[C@@H](CCCNC(=N)N)C(=O)N[C@@H](CO)C(=O)N1CCC[C@H]1C(=O)O |  | BALB/c nude mouse, MDA-MB-231 xenograft, human PBMC | iv, 60 or 300 µg per mouse twice weekly, 2 weeks | relative to: PBS or S-compound | tumour growth | decreased
COc1cc([C@@H]2c3cc4c(cc3[C@H](OC(=O)CCCc3ccc(NS(=O)(=O)c5cccc(Br)c5)cc3)[C@H]3COC(=O)[C@H]23)OCO4)cc(OC)c1OC |  | A549 xenograft, BALB/c nude mouse, female | intraperitoneal, 4 mg/kg every two days, eight doses | relative to: vehicle | tumour growth | inhibited
Cc1[nH]c2ccccc2c1CCNCc1ccc(/C=C/C(=O)NO)cc1 |  | SF8628 luciferase flank xenograft, mouse DIPG flank model | intraperitoneal, 10 mg/kg, 2 weeks daily |  | tumour doubling time | 8.3 days
COc1ccc(/C=C\c2cc(OC)c(OC)c(OC)c2)cc1OP(=O)(O)O |  | mouse S-180 tumour | intravenous, 20 mg/kg CA4 equivalent, 7 days daily dosing | relative to: saline | tumour growth inhibition | 57.9%
C[C@H]1[C@H](OC(=O)CCC(=O)O)O[C@@H]2O[C@@]3(C)CC[C@H]4[C@H](C)CC[C@@H]1[C@@]24OO3 | tumour weight | mouse, Hep3B-Luc orthotopic xenograft | 50 mg/kg daily, 24 days | relative to: vehicle | tumour growth inhibition | 19.8%
Nc1ccn([C@@H]2O[C@H](CO)[C@@H](O)C2(F)F)c(=O)n1 |  | mouse, HCT-116 subcutaneous xenograft | intravenous, 25 mg/kg on days 0, 2, 4, 12 days after treatment |  | tumour volume | 343 mm³

A few entries again:
Structure (SMILES) | assay | test system | setting | how to read | measurement | result
Nc1ccn([C@@H]2O[C@H](CO)[C@@H](O)C2(F)F)c(=O)n1 |  | mouse, HCT-116 subcutaneous xenograft | intravenous, 25 mg/kg on days 0, 2, 4, 12 days after treatment |  | tumour volume | 343 mm³
